Experimental data collected from several papers.
A part holds a random share of what one study measured. Substitutions count along the parent as printed.

Set 1 — method: RNA Bind-n-Seq; molecule type: RNA; sample: in vitro; tested at: 200 nM; setting: whole 134-nt RNA, ends assumed; together with: 150 mM KCl; relative to: input library; direction: higher = stronger binding
Target: Ras GTPase-activating protein-binding protein 1, full length (G3BP1, Homo sapiens, UniProt Q13283)
Sequence of UniProt Q13283 (whole entry, looked up): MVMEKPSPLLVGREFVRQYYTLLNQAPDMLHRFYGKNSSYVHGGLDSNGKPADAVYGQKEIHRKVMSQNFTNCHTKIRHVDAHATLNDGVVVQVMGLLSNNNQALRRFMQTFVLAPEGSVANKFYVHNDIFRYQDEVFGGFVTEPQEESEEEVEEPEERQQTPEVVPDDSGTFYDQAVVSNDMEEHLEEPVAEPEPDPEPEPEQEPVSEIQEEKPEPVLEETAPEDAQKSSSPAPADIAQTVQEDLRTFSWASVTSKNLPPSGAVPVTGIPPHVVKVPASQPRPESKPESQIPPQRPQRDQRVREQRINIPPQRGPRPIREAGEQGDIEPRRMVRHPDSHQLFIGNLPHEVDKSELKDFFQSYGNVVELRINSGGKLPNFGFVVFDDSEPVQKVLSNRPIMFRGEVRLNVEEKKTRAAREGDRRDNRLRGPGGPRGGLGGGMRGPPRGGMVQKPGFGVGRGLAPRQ
For `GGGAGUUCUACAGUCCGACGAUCCCUCAAGUCCUGUGCUACACAUCGUAUGUACCGAAUCGGGCCGGCCGGGCCGGAAAGUAUUAUGUUACGCCGUUCGGAUCUGCACUUCCAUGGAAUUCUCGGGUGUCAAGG`, the log2 enrichment was -0.217.
`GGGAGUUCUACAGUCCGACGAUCCCUCAAGUCCUGUGCUACACAUCGUAUGUACCGAAUCGGUUUGGUUUGGUGGAAAGUAUUAUGUUACGCCGUUCGGAUCUGCACUUCCAGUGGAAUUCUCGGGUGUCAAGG` gave a log2 enrichment of -0.298.
`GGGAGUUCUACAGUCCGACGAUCUGGGAGGUGGAUUUUGUUUAUUUUUUUAGCUCAUUUCCAGGGGUGGGAAUUUUUUUUUAAUAAGUGUCAUGAAUAAAGUUGUUUUUGAAAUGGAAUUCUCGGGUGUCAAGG` has a log2 enrichment of 0.0885.
With `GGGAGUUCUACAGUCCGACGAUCAGUCCUGUGCUACACAUCGUAUGUACCGAAUCGGGGAAAAAGGGGUGGGGUUUGGGGAAAGUAUUAUGUUACGCCGUUCGGAUCUGCACUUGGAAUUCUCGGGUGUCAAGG` the log2 enrichment was 0.175.
For `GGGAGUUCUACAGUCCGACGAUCACCAUGCAGGUGGGCAUCUUUGGGAAGAGGGGCAAGGGGGGGAUAGGGAGGGGGGUAACACUUUGGGAACAGGUGGUCCCAGGUCGUUUCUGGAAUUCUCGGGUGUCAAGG`, the log2 enrichment was 1.59.
`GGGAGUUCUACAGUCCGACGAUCUGGGAGGUGGAUUUUGUUUAUUUUUUUAGCUCAUUUCCAGGGGUGGGAAUUUAUUUUUAAUAUGUGUCAUGAAUAAAGUUGUUUUUGAAAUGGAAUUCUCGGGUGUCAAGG` gave a log2 enrichment of 0.244.
`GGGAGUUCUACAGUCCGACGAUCAGUCCUGUGCUACACAUCGUAUGUACCGAAUCGGGAAAAGGGGAAAAGGGAAAAGGGAAAGUAUUAUGUUACGCCGUUCGGAUCUGCACUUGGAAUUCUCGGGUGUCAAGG` has a log2 enrichment of 0.0418.
With `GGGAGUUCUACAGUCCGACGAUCACCAUGCAGGUGGGCAUCUUUGGUAAGUGGGGCAAGGGGGGGAUAGGGAGGGGGGUAACACUUUGGGAACAGGUGGUCCCAGGUCGUUUCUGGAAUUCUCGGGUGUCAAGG` the log2 enrichment was 0.979.
`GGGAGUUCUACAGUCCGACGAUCACCAUGCAGGUGGGCAUCUUUGGGAAGUGGGGCAAGGGGGGGAUAGGGAGGGGGGUAACACUUUGGGAACAGGUGGUCACAGGUCGUUUCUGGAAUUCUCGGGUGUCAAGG` has a log2 enrichment of 1.78.

Set 2 — target: CREBRF, bZIP domain (human); method: DHFR protein complementation; sample: yeast; relative to: wild-type JUN-FOS pair; direction: higher = stronger binding
Setting: single substitutions, most at no-binding floor
Parent: JUN, bZIP domain (human); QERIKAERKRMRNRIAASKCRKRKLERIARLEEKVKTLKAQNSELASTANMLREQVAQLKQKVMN; partner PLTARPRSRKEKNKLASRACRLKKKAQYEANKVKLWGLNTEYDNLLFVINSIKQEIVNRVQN
For `S43W`, the binding fitness was -1.47 natural log.
For `L38S`, the binding fitness was -1.52 natural log.
For `A40H`, the binding fitness was -1.59 natural log.
`Q41D` has a binding fitness of -1.51 natural log.
With `E44S` the binding fitness was -1.61 natural log.
`S47C` gave a binding fitness of -1.46 natural log.

Set 3 — method: RNA Bind-n-Seq; molecule type: RNA; sample: in vitro; tested at: not given; setting: RNA with constant flanks, ends assumed; relative to: input RNA pool; direction: higher = stronger binding
Target: RING finger protein unkempt homolog, zinc fingers 1-6, GST-SBP tag (UNK, Homo sapiens, UniProt Q9C0B0, residues 30-357)
Target sequence (chain): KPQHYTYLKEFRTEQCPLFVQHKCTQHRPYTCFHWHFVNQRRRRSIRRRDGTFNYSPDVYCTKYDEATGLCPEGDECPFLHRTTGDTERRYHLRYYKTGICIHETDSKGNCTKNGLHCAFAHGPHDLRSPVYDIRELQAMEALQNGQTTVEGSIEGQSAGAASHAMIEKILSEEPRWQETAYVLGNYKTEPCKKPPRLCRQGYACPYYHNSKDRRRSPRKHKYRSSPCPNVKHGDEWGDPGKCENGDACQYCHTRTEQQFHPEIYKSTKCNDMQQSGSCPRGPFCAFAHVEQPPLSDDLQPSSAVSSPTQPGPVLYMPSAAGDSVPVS
`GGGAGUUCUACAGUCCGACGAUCCAGCCAGGGAUUUUUGGGUUUUUUGUUUUGGGUUGAGUCUGGGUGUUAUUUUUGUUUGUUUCCGGCAUAUAAUUCCCGAUGUAAUUUGAUUUAAAAGUAUAACUGACUUGCUUUUAAAUCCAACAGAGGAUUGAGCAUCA` has a bound/input enrichment of 0.37 ratio.
The bound/input enrichment of `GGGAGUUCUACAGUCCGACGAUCAAAGAUAAAUUUGCAAGGGCCAAAGAGUUUGGAGCCACUGAAUGUAUUAACCCUCAGGAUUUCCGUAAACCCAUCCAGGAAGUGCUCAUUGAGAUGACCGAUGGAGGAGUGGACUAUUCCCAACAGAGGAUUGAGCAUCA` is reported as 0.235 ratio.
`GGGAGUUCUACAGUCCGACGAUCUUGCUCUCUGAAGUAGACUAGACUGUGCUGUCCAUGAGGAAUGGGUGUGCAUGUGCUUGUCCCCGUGCGUCCCGCUUCUGCAUCGCAGCUGCAGGCCUCCCUCUGGCGGCUGUGUCGCCACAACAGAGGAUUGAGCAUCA` gave a bound/input enrichment of 0.0773 ratio.
`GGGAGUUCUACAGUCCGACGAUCGGAGACGUUUGAUGCAAAUGAUUUGUAUCAGGGGCAGAAUUUUAACAAGGUCCUCAGUUCCUCCGUGACUCUAAAUAAAGUAACAGCAGACAUCGGGCUGGGGAGUGACUCCGUGUGUGCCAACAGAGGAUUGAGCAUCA` gave a bound/input enrichment of 0.278 ratio.
With `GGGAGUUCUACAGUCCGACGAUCUUAAGAAAAAUGCCUCACAUUAAACAUGUGGAUCUAAGGUUGAACGUAAUUAGGAAGCUGACCGCAGAUGAAGUGGACUUUCUACAGCAUGUUACUCAGCUUGACCUACGAGACAAUAAGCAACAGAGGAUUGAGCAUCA` the bound/input enrichment was 0.192 ratio.
`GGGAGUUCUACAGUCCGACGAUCGCCAAGGCCAUCCAGCUGAACAGCAACAGCGUCCAGGCUCUGUUACUCAAGGGGGCGGCGCUCCGGAACAUGGGGAGGGUCCAGGAAGCCAUCAUACACUUUCGGGAGGCCAUCAGGCUUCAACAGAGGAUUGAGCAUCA` gave a bound/input enrichment of 0.0956 ratio.

Mixed results
With `PhoQ, residues 284 288 289 292 302 303 SCEHLI` the fold induction was 17.8 (PhoP, residues 12 14 15 18 19 GHCSL (Escherichia coli, UniProt P23836); Sort-seq, item: YFP reporter; E. coli; PhoQ-PhoP variant library, together with: 10 µM Mg2+; relative to: high Mg2+ state, higher = stronger signaling).

Excerpt of the above (set 1):
`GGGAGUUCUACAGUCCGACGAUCUGGGAGGUGGAUUUUGUUUAUUUUUUUAGCUCAUUUCCAGGGGUGGGAAUUUAUUUUUAAUAUGUGUCAUGAAUAAAGUUGUUUUUGAAAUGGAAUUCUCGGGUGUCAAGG` gave a log2 enrichment of 0.244.
`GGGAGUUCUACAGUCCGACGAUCACCAUGCAGGUGGGCAUCUUUGGGAAGUGGGGCAAGGGGGGGAUAGGGAGGGGGGUAACACUUUGGGAACAGGUGGUCACAGGUCGUUUCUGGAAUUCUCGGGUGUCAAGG` has a log2 enrichment of 1.78.
For `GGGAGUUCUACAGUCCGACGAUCACCAUGCAGGUGGGCAUCUUUGGGAAGAGGGGCAAGGGGGGGAUAGGGAGGGGGGUAACACUUUGGGAACAGGUGGUCCCAGGUCGUUUCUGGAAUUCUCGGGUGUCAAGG`, the log2 enrichment was 1.59.
